Assay results from different studies.
Numbered parts are unrelated; each lists some results of a single study.

Series 1 — technique: protein-binding microarray; form: double-stranded DNA, one strand shown; matrix: in vitro; concentration: 2200 nM top; setting: 60-bp whole probe; added: salmon DNA 0.4 mg/ml; relative to: random background probes; direction: higher = stronger binding; quantity: fitted relative affinity; shared flanks, not repeated: GCCTAGCAC … GTCTTGATTCGCTTGACGCTGCTG
Target: Interferon regulatory factor 7, full length, phosphomimetic (IRF7, Homo sapiens, UniProt Q92985, residues 1-503, S471D/S472D/S475D/S476D/S477D/S483D/S484D/S487D)
Chain of UniProt Q92985 (whole entry, unmodified, looked up): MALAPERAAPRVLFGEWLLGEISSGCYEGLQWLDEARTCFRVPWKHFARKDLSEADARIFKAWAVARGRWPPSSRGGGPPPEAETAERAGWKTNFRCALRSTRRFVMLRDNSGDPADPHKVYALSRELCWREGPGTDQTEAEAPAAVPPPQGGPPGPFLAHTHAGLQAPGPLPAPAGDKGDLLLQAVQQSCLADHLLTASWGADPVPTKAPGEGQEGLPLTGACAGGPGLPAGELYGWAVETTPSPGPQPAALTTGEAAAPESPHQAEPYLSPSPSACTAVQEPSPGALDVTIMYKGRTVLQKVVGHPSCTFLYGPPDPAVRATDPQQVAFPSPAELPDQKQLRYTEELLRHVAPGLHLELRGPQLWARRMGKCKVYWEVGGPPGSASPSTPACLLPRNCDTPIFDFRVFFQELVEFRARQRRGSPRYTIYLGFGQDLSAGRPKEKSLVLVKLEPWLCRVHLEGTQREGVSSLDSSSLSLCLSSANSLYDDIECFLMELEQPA
CTTTCTTTCCATACTGCAAGGTGCTAG: 4.1 z-score
GACGGTTGCGACACTGGGGACGTGCTA: -0.399 z-score
TTAGATCTCGGGTATCGATTAGTGCTA: 0.415 z-score
GACGATCTCCGTTTCGAGACGTGCTAG: 2.43 z-score
GCCGGTATCGGTCTCGGGACGTGCTAG: 0.0724 z-score

Series 2 — technique: EMSA with sequencing; form: double-stranded DNA, one strand shown; matrix: in vitro; concentration: 10 and 20 nM; relative to: negative control set to 0; direction: higher = stronger binding; quantity: normalised bound fraction
Target: Hepatocyte nuclear factor 3-alpha (Foxa1, Mus musculus, UniProt P35582, residues 1-468, full length assumed)
Chain of UniProt P35582 (whole entry, looked up): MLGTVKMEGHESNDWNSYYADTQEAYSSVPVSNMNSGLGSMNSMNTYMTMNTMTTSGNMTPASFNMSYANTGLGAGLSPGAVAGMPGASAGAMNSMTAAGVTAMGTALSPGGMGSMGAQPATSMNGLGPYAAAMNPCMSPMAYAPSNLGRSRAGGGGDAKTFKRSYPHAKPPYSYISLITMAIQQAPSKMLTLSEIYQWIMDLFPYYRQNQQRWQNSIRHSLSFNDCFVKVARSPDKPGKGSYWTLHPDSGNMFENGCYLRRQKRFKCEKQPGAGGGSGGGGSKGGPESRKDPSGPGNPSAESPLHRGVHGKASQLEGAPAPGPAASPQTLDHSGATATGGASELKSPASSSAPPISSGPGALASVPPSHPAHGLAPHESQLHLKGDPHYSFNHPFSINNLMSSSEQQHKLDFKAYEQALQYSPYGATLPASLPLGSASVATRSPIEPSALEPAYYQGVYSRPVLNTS
Setting: whole designed probe, mean of two concentrations, ends assumed
GTGAGCGGTGCCCATTGATGGGGAACATCTTCCCCCTCTTCCTTGCCCCACCAGCTCACCTTCCCGGGTTATTTGCAGATAGGAAAATAAATAAAGCCGGCATTCGTTAACCCTCTTCACGCGCATACTGCTGTTTGCTCTGCATGAATCATGGTCCTTACGCGAGGCGTGGCTCCGGGAGAGCAAAGCACCGTGTCAGGCGCATGATCCGGGGTGGCCTTTCACTGGGATCGTGGGGAC: 0.356 ratio
GTGAGCGGTGCCCATTGATGGGGAACATCTTCCCCCTCTTCCTTGCCCCACCAGCTCACCTTCCCGGGTCAAAGTAAACAAGTGTTTACTTTGAAGCCGGCATTCGTTAACCCTCTTCTGGCGCAAACTGCTGTTTGCTCTGGATCTAACATGGTCCTTTGGCGACGCCAGGCTCCGGGAGAGCAAAGCACCGTGTCAGGGCCATGATCCGGGGTGGCCTTTCACTGGGATCGTGGGGAC: 0.459 ratio
GTGAGCGGTGCCCATTGATGGGGAACCCTAGGACCATCTTCTACTTATGAGAGTGAACTTCACTGTATGTCACCAATTCCGTACCTTGTCTATTGTTTAATAGTCGAGATACTGTCAAAGTAAACAAATGCTGCCACCTTGTGGACTGAAGGGTATGGTCTTAACTCCAAATAAGCAAAGGAAGAAAAATACGTTTCTGGTTCGGCCTTTTCTCTCAGATTTCACTGGGATCGTGGGGAC: 0.483 ratio
GTGAGCGGTGCCCATTGATGGGGAACTTACCGAAGATAGGAATTTCTTGCTTTTATTAAAACTGACCCAAATGTAATCCAATCAGGATTGCAAGATGTTATATTTGACCTATAAATATAAGTAATCTTGGCTCTCTTTATCTGGGAGCCATTTGTTGTGAAGGCAGAATTCCTTCATATATGTTTTACTGTTGCAGATAAAACTCAGTATTAAAAAAATTTTCACTGGGATCGTGGGGAC: 0.0668 ratio

Series 3 — technique: RNAcompete; form: RNA; matrix: in vitro; concentration: 20 nM; setting: 7-mer, probes averaged, single round; relative to: mean of 7-mers; direction: higher = stronger binding; quantity: 7-mer Z-score
Target: PABPC1L2, full length, GST fusion (mouse, UniProt A0ABA7IW68)
Construct (chain): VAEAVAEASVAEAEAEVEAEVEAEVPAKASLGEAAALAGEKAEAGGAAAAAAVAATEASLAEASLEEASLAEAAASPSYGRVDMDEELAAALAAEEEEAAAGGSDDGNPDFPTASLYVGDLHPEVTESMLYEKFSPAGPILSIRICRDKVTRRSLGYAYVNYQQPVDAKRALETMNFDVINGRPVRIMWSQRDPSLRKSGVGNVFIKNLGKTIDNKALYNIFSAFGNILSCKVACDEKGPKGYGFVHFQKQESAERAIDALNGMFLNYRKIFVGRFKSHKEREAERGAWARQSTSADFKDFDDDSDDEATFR
UGCGGCC: -0.267
UAGUUGG: -0.0428
GCUCGCC: -0.44
GAGUCAU: -0.296

Other studies, line by line
PhoQ, residues 284 288 289 292 302 303 DDMDFR  fold induction (PhoP, residues 12 14 15 18 19 IQSYL (Escherichia coli, UniProt P23836); Sort-seq, measured: YFP reporter; E. coli; PhoQ-PhoP variant library, added: 10 µM Mg2+; relative to: high Mg2+ state, higher = stronger signaling): 0.789

For quick reference, copied from above (series 1):
GACGGTTGCGACACTGGGGACGTGCTA: -0.399 z-score
